# Results collected from several papers.
# Numbered parts are unrelated; each lists some results of a single study. Values joined by “and” are separate records of one study, mostly repeats; a detail may differ.
# Sequence of UniProt Q8WTQ7 (whole entry, looked up): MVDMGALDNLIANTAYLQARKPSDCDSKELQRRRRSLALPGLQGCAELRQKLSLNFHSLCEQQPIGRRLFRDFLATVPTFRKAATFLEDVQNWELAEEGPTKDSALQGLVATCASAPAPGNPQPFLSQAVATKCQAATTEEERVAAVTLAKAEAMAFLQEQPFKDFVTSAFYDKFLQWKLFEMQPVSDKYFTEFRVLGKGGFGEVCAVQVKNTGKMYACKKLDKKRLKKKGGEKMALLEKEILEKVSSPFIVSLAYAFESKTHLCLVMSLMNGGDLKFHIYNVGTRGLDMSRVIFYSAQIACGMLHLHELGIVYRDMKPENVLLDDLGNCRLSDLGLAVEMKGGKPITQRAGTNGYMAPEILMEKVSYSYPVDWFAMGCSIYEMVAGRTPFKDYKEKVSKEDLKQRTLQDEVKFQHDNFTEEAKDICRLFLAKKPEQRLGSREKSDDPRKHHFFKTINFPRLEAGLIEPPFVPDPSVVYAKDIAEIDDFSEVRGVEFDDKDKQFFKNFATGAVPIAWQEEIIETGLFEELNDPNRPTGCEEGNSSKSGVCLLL
# Sequence of UniProt Q9UQ88 (whole entry, looked up): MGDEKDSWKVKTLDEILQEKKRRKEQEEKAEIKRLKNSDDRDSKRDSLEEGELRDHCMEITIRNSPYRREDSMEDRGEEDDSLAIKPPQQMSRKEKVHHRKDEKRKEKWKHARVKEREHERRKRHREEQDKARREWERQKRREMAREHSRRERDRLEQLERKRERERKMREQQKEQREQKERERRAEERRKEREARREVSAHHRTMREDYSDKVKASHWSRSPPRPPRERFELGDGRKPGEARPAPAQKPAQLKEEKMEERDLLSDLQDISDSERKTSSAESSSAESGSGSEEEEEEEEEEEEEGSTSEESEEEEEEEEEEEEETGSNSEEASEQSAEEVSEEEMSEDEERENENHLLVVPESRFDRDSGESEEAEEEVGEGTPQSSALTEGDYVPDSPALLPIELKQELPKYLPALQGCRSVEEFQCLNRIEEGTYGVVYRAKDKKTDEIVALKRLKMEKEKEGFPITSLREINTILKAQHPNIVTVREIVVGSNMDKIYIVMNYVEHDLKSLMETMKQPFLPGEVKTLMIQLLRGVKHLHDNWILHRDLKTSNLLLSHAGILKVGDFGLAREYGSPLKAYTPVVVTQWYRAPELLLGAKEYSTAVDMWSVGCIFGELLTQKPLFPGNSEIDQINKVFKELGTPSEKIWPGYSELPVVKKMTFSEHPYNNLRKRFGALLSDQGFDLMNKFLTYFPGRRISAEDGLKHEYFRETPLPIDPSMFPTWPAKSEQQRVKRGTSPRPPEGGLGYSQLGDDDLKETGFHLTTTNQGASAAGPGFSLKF
# Sequence of UniProt Q8N5S9 (whole entry, looked up): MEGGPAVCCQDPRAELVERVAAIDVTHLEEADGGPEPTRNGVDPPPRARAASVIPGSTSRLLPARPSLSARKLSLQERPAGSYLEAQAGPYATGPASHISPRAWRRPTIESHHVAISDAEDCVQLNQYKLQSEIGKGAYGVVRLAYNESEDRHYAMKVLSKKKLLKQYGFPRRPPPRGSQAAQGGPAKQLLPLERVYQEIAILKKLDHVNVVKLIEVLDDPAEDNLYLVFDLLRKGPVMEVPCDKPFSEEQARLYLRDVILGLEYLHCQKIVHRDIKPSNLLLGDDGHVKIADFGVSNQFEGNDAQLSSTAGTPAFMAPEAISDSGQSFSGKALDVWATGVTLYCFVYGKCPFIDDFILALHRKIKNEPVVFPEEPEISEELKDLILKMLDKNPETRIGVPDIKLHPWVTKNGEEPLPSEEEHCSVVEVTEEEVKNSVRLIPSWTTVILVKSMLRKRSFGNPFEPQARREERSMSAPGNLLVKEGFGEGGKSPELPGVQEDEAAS

# Study 1
# SMILES: CCC1(c2cccc(-c3cn(C)nc3C)c2)C2=C(Nc3n[nH]cc31)C(F)C(C)(C)CC2=O (single isomer, unassigned)
# Concentration: 1 µM
target,assay,scale,remaining binding [%]
"GRK7 (Homo sapiens, UniProt Q8WTQ7)","kinase binding, KINOMEscan",reference: DMSO control,93
"DCLK3 (Homo sapiens, UniProt Q9C098)","kinase binding, KINOMEscan",reference: DMSO control,85
"CSK (Homo sapiens, UniProt P41240)","kinase binding, KINOMEscan",reference: DMSO control,100
"CAMKK1 (Homo sapiens, UniProt Q8N5S9)","kinase binding, KINOMEscan",reference: DMSO control,100
"KDR (Homo sapiens, UniProt P35968)","binding, competition with immobilised ligand",,100
"PKN2 (Homo sapiens, UniProt Q16513)","kinase binding, KINOMEscan",reference: DMSO control,100
"Ribosomal protein S6 kinase alpha-3, N-terminal kinase domain (RPS6KA3, Homo sapiens, UniProt P51812)","kinase binding, KINOMEscan",reference: DMSO control,100
"SBK3 (Homo sapiens, UniProt P0C264)","kinase binding, KINOMEscan",reference: DMSO control,100
"Tyrosine-protein kinase ABL1, phosphorylated (ABL1, Homo sapiens, UniProt P00519, E255K)","kinase binding, KINOMEscan",reference: DMSO control,77
"PTK2B (Homo sapiens, UniProt Q14289)","binding, competition with immobilised ligand",,100
"RIOK1 (Homo sapiens, UniProt Q9BRS2)","kinase binding, KINOMEscan",reference: DMSO control,100
"PIP4K2B (Homo sapiens, UniProt P78356)","binding, competition with immobilised ligand",,100
"Tyrosine-protein kinase ABL1, non-phosphorylated (ABL1, Homo sapiens, UniProt P00519, T315I)","binding, competition with immobilised ligand",,95
"Ribosomal protein S6 kinase alpha-6, N-terminal kinase domain (RPS6KA6, Homo sapiens, UniProt Q9UK32)","binding, competition with immobilised ligand",,100
"TXK (Homo sapiens, UniProt P42681)","kinase binding, KINOMEscan",reference: DMSO control,100
"CDK11A (Homo sapiens, UniProt Q9UQ88)","binding, competition with immobilised ligand",,100
"RET (Homo sapiens, UniProt P07949, V804L)","binding, competition with immobilised ligand",,100

# Study 2
# Structure (SMILES): C[C@@H]1CN(c2ccc(-c3cc(C(=O)NCCOCCOCCOCCOCCNC(=O)Cn4cc(-c5[nH]cc(C(=O)N[C@@H](CC(N)=O)c6ccc(F)c(Cl)c6)c5-c5ccc(Cl)cc5F)cn4)ccc3F)cc2NC(=O)c2c[nH]c(=O)cc2C(F)(F)F)C[C@H](C)N1C
# Read-out: thermal unfolding
# Method: differential scanning fluorimetry
# Concentration: 5.5 µM
# Reading: higher = more unfolded
# DCAF1: DDB1- and CUL4-associated factor 1 (DCAF1, Homo sapiens, UniProt Q9Y4B6)
# Sequence of UniProt Q9Y4B6 (whole entry, looked up): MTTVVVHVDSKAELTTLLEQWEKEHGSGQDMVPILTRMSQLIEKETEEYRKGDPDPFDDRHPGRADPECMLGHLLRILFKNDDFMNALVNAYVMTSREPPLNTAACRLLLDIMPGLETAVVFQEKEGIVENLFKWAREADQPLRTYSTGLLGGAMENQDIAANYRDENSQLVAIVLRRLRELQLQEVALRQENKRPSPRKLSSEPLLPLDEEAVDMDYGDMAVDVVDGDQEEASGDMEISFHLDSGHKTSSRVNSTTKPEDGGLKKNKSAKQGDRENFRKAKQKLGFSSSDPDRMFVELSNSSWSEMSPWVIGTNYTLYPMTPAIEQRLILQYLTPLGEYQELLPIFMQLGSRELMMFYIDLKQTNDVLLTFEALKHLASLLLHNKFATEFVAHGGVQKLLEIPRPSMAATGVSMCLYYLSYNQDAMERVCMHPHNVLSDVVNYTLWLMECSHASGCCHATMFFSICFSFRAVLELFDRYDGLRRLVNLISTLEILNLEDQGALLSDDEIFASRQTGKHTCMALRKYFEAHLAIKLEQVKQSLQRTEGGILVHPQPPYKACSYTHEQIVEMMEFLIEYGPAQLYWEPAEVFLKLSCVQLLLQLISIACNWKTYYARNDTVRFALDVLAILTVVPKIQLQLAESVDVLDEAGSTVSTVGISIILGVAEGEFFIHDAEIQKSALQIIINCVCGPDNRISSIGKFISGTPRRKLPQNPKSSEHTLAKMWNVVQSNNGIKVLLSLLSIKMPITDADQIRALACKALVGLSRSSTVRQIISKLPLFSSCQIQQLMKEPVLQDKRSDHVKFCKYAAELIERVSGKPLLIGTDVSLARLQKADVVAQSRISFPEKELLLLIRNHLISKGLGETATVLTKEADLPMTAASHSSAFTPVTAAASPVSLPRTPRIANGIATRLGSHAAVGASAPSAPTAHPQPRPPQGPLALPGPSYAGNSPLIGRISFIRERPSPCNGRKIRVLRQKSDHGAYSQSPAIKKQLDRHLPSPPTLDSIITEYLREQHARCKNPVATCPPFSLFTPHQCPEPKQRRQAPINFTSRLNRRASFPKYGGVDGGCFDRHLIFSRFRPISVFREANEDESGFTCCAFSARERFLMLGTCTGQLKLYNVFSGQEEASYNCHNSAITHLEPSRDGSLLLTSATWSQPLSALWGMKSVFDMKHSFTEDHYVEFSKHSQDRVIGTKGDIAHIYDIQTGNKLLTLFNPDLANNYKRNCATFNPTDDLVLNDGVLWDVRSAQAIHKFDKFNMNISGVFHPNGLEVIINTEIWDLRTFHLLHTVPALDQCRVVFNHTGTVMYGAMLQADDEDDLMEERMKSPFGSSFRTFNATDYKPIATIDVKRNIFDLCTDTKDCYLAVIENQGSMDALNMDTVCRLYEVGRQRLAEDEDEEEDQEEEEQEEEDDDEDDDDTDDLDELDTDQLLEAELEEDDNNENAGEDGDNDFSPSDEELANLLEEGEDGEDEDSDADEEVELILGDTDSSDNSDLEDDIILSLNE
# WDR5: WD repeat-containing protein 5 (WDR5, Homo sapiens, UniProt P61964)
target,setting,SYPRO Orange fluorescence [a.u.]
DCAF1,40.6 °C,10600
WDR5,64.01 °C,8170
DCAF1,60.21 °C,38900
DCAF1,74.61 °C,49700
DCAF1,93.21 °C,31800
WDR5,40 °C,14200
WDR5,72.81 °C,8200
WDR5,26.6 °C,14700
WDR5,58.81 °C,11100
WDR5,25 °C,14800
WDR5,85.01 °C,39400

# Study 3
# SMILES: Cc1nc2c([nH]1)c(=O)[nH]c(=S)n2Cc1cccc(OC/C(=C/F)CN)c1
# MPO: Myeloperoxidase (MPO, Homo sapiens, UniProt P05164)
# Sequence of UniProt P05164 (whole entry, looked up): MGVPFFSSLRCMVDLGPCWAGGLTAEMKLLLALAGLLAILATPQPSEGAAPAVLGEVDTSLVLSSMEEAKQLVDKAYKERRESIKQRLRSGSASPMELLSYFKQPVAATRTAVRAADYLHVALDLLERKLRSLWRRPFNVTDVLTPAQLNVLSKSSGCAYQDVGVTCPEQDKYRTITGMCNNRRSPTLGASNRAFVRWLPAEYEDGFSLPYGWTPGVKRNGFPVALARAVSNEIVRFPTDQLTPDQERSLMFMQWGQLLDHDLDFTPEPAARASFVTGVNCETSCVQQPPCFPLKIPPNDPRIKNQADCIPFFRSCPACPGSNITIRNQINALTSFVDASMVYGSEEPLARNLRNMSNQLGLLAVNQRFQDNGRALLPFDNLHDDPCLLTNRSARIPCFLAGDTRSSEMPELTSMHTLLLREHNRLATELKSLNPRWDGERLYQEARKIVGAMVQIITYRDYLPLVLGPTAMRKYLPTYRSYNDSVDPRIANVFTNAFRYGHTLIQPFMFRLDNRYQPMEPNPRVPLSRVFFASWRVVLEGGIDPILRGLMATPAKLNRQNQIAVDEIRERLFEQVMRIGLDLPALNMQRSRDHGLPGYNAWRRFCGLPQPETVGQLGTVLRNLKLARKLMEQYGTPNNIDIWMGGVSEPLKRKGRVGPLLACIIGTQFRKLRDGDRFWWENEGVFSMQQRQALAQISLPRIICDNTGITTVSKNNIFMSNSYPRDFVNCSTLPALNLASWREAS
# AOC3: Amine oxidase [copper-containing] 3 (AOC3, Homo sapiens, UniProt Q16853)
# Sequence of UniProt Q16853 (whole entry, looked up): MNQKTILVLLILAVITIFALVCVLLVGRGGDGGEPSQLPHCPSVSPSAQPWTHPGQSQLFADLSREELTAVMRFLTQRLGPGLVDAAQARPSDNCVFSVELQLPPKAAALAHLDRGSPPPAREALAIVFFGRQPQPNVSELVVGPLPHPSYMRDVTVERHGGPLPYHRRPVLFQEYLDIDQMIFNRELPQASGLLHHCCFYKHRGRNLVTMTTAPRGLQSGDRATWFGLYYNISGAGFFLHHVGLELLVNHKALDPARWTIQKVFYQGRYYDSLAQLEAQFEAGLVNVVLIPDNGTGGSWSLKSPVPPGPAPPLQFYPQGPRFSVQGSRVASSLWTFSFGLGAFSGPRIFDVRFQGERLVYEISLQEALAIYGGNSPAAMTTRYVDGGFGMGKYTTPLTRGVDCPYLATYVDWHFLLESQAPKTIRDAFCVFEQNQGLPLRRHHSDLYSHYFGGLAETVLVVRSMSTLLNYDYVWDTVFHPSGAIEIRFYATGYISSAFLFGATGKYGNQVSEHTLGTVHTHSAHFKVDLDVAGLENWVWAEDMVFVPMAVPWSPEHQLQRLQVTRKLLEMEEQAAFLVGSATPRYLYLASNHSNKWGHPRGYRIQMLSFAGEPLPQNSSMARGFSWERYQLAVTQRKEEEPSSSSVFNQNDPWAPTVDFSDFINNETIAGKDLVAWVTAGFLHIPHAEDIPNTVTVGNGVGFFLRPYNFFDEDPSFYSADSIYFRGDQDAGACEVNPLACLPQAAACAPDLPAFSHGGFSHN
target,assay,setting,inhibition
MPO,"enzyme activity, inhibitor, fluorescence",0.1235 µM,12.6%
AOC3,"enzyme activity, inhibitor, fluorescence",30 µM,103% and 101% and 100%
AOC3,"enzyme activity, inhibitor, fluorescence",13.7 nM,31.6% and 43.1% and 30.1% and 37.4%
AOC3,"enzyme activity, inhibitor, fluorescence",1.111 µM,96.3% and 99.7% and 98.5% and 99.5%
MPO,"enzyme activity, inhibitor, fluorescence",1.667 µM,76.6% and 69.1%
MPO,Amplex Red,0.0206 µM,-3.51% and -11.8%
MPO,"enzyme activity, inhibitor, fluorescence",0.5556 µM,42.1% and 28.1%
MPO,"enzyme activity, inhibitor, fluorescence",800 pM,-8.65% and -17.7%

# Study 4
# Organism: Arabidopsis thaliana
# Strain: Col-0
# Concentration: 50 µg/mL
# Setting: seed germination
Structure (SMILES),root length [cm]
Cc1ccc2c(c1)OC(O)(C(=O)O)C(=O)N2Cc1ccccc1 (stereo not drawn),0.922
O=C(O)C1(O)Oc2cc(F)ccc2N(Cc2ccccc2)C1=O (stereo not drawn),0.01
CCN1C(=O)C(O)(C(=O)O)Oc2cc(F)ccc21 (stereo not drawn),0.683
CC(C)=CCN1C(=O)C(O)(C(=O)O)Oc2cc(F)ccc21 (stereo not drawn),0.902
CC(C)(C)c1ccc(Oc2ccc3c(c2)OC(O)(C(=O)O)C(=O)N3Cc2ccccc2)cc1 (stereo not drawn),0.419
O=C(O)C1(O)Oc2cc(Br)ccc2N(Cc2ccccc2)C1=O (stereo not drawn),0.528
O=C(O)C1(O)Oc2ccccc2N(Cc2ccccc2)C1=O (stereo not drawn),1.06
O=C(O)C1Oc2cc(F)ccc2N(Cc2ccccc2)C1=O (stereo not drawn),0.859
O=C(O)C1(O)Oc2cc(Cl)ccc2N(Cc2ccccc2)C1=O (stereo not drawn),0.622

# For quick reference, copied from above (study 1):
target,assay,scale,remaining binding [%]
"Tyrosine-protein kinase ABL1, phosphorylated (ABL1, Homo sapiens, UniProt P00519, E255K)","kinase binding, KINOMEscan",reference: DMSO control,77
"KDR (Homo sapiens, UniProt P35968)","binding, competition with immobilised ligand",,100
"RET (Homo sapiens, UniProt P07949, V804L)","binding, competition with immobilised ligand",,100
"SBK3 (Homo sapiens, UniProt P0C264)","kinase binding, KINOMEscan",reference: DMSO control,100
"TXK (Homo sapiens, UniProt P42681)","kinase binding, KINOMEscan",reference: DMSO control,100
"Tyrosine-protein kinase ABL1, non-phosphorylated (ABL1, Homo sapiens, UniProt P00519, T315I)","binding, competition with immobilised ligand",,95
"CAMKK1 (Homo sapiens, UniProt Q8N5S9)","kinase binding, KINOMEscan",reference: DMSO control,100
